Assay results collected from several papers.
Every numbered part comes from another study and shows a few of its results, in no order. Values joined by “and” are separate records of one study, mostly repeats; a detail may differ.
Chain of UniProt Q9Y2I7 (whole entry, looked up): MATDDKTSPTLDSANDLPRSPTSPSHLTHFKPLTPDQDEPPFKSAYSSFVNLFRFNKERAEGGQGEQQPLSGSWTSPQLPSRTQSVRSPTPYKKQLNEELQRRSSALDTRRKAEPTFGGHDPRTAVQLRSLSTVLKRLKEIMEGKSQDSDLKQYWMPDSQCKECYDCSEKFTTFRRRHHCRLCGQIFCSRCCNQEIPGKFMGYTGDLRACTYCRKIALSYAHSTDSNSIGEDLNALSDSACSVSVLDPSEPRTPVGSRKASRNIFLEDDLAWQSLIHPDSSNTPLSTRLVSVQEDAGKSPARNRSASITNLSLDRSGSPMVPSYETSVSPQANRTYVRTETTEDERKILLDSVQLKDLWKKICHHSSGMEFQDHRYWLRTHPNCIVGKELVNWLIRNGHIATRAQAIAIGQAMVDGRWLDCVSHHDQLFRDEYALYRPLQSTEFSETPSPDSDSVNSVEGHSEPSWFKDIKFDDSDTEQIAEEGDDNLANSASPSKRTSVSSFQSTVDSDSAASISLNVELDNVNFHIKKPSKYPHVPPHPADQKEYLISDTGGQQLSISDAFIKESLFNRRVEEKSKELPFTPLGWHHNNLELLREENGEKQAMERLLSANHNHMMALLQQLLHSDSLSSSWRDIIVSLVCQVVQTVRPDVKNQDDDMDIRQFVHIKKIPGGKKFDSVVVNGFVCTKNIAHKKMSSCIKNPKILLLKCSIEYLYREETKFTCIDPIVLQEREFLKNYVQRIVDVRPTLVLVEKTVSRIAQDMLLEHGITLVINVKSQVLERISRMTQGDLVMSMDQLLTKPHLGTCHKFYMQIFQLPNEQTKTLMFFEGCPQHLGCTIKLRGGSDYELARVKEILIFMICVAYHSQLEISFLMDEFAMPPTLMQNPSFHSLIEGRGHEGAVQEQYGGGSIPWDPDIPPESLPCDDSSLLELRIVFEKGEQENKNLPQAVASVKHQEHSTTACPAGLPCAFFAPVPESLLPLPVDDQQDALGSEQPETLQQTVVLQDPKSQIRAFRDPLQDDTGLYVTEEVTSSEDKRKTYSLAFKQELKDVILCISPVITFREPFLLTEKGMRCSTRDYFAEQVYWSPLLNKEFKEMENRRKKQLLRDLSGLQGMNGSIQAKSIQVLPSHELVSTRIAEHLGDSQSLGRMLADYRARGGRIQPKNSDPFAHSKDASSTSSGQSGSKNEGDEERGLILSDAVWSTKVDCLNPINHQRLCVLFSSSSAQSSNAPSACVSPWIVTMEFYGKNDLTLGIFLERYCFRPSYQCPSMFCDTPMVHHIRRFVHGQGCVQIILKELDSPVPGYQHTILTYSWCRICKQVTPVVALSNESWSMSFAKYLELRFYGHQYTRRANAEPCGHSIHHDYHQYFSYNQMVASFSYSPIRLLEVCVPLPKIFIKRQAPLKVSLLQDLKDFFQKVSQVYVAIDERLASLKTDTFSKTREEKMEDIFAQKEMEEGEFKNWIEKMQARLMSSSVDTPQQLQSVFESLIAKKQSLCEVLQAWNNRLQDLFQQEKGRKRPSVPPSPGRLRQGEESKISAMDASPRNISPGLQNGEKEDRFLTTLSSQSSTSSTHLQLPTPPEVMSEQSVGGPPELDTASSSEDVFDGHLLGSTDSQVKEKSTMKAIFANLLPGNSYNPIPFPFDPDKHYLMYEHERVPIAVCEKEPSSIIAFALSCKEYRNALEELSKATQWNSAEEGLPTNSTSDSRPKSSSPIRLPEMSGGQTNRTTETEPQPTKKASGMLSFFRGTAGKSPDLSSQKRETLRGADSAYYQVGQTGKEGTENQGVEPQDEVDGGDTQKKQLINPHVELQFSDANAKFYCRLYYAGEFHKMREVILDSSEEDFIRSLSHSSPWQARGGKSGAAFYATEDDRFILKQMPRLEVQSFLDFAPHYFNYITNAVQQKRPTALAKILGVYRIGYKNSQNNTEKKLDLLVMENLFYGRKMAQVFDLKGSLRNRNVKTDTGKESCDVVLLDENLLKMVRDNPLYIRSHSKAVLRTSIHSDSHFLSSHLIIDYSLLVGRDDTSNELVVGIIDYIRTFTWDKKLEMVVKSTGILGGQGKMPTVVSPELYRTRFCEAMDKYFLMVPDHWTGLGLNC
Chain of UniProt Q16620 (whole entry, looked up): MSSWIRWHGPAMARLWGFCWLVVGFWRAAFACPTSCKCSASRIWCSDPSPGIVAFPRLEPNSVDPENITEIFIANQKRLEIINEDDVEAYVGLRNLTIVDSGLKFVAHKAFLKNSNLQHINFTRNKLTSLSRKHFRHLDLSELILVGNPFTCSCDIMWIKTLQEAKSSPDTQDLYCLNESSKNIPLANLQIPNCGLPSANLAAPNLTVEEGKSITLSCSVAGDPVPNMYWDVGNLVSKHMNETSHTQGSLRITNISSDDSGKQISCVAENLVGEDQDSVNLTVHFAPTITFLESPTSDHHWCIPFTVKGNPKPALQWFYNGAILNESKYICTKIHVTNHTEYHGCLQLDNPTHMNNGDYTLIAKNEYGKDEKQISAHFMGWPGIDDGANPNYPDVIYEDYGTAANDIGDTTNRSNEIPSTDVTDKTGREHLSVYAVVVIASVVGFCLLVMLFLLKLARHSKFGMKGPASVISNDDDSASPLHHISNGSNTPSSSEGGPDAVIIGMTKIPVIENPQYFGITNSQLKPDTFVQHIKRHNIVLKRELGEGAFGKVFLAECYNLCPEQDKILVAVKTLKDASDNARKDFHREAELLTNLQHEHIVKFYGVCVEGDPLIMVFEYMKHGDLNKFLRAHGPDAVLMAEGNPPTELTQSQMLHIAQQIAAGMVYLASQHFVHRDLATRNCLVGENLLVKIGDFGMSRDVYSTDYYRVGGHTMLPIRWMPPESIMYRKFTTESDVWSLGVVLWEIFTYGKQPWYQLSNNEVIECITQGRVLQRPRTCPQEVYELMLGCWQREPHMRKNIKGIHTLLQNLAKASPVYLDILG
Chain of UniProt Q13546 (whole entry, looked up): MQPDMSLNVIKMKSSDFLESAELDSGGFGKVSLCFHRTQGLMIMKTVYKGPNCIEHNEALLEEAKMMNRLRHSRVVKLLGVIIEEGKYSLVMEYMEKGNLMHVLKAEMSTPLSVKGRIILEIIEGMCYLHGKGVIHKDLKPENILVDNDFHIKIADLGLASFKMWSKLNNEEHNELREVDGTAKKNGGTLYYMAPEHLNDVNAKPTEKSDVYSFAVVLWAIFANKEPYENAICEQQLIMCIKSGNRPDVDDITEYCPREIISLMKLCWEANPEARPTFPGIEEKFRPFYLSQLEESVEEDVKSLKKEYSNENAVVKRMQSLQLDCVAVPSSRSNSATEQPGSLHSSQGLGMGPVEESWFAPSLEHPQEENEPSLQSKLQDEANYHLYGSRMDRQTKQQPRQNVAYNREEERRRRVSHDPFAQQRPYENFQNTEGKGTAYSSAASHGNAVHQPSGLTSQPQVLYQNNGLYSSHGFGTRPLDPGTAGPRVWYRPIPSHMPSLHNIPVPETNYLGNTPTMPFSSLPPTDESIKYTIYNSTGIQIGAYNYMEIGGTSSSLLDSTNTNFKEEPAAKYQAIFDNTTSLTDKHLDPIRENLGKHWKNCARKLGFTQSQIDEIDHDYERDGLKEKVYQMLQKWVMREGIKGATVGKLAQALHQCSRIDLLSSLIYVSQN
Chain of UniProt Q13177 (whole entry, looked up): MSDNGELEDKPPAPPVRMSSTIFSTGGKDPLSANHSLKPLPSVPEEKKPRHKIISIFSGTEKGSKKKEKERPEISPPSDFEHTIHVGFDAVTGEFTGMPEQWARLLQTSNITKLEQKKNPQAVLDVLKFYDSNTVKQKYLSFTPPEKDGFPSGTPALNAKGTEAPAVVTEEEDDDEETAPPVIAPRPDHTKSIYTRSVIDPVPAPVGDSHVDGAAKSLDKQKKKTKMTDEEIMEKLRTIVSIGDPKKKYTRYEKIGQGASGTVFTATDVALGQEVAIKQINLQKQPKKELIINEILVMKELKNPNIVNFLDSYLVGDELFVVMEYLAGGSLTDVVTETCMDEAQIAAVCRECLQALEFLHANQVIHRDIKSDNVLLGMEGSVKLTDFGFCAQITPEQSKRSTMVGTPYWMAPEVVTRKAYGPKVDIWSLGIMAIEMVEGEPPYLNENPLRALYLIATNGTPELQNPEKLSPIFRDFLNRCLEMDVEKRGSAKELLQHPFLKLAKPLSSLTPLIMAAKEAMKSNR

Study 1 — cell line: A-375; concentration: 100 µM; time: 18 h; quantity: viability
CN1CCOC(c2ccccc2)c2ccccc2C1 (centres unmarked): 91.8%
CN1CC(=O)N2[C@H](c3ccc4c(c3)OCO4)c3[nH]c4ccccc4c3C[C@@H]2C1=O: 101%
CN(C/C=C/c1ccccc1)Cc1cccc2ccccc12: 50.2%
CC(/C=C/C=C(\C)C(=O)O[C@@H]1O[C@H](CO[C@@H]2O[C@H](CO)[C@@H](O)[C@H](O)[C@H]2O)[C@@H](O)[C@H](O)[C@H]1O)=C\C=C\C=C(C)\C=C\C=C(/C)C(=O)O[C@@H]1O[C@H](CO[C@@H]2O[C@H](CO)[C@@H](O)[C@H](O)[C@H]2O)[C@@H](O)[C@H](O)[C@H]1O: 111%
O=C(NCCN1CCOCC1)c1ccc(Cl)cc1: 103%
OC[C@@H](O)[C@@H](O)[C@H](O)[C@H](O)CO: 85.7%
CCCNC(=O)NS(=O)(=O)c1ccc(Cl)cc1: 106%
O=C(O)c1cc(O)c(O)c(O)c1: 15.4%

Study 2 — medium: plasma; quantity: half-life
SMILES: O=C1CCC(N2Cc3cc(C4CCN(Cc5ccccc5)CC4)ccc3C2=O)C(=O)N1 (centres unmarked)
male ICR mice; intravenous, 1.0 mg/kg: 3.9 h and 3.02 h
ICR mouse, male; intravenous, 1.0 mg/kg: 2.93 h
rat Sprague Dawley male; oral, 3.0 mg/kg: 1.22 h and 1.52 h
male ICR mice; oral, 3.0 mg/kg: 1.19 h and 1.35 h
Sprague Dawley rat, male; oral, 3.0 mg/kg: 1.18 h
rat Sprague Dawley male; intravenous, 1.0 mg/kg: 2.48 h and 4.94 h and 5.45 h

Study 3 — effect on: cell-free assay; technique: competition with immobilised ligand; concentration: 1 µM; quantity: remaining binding
SMILES: O=C(Nc1cccnn1)N1CC(C/C=C/c2cncc(Oc3ccc(C(F)(F)F)cn3)n2)C1
Tyrosine-protein kinase Yes (YES1, Homo sapiens, UniProt P07947): 100%
Serine/threonine-protein kinase PAK 2 (PAK2, Homo sapiens, UniProt Q13177): 95%
Tyrosine-protein kinase ABL1, non-phosphorylated (ABL1, Homo sapiens, UniProt P00519, H396P): 100%
Receptor-interacting serine/threonine-protein kinase 1 (RIPK1, Homo sapiens, UniProt Q13546): 100%
Citron Rho-interacting kinase (CIT, Homo sapiens, UniProt O14578): 100%
Dual specificity mitogen-activated protein kinase kinase 7 (MAP2K7, Homo sapiens, UniProt O14733): 91%
Phosphatidylinositol 4-phosphate 3-kinase C2 domain-containing subunit beta (PIK3C2B, Homo sapiens, UniProt O00750): 93%
1-phosphatidylinositol 3-phosphate 5-kinase (PIKFYVE, Homo sapiens, UniProt Q9Y2I7): 100%
SRSF protein kinase 2 (SRPK2, Homo sapiens, UniProt P78362): 100%
Ephrin type-A receptor 5 (EPHA5, Homo sapiens, UniProt P54756): 85%
Fibroblast growth factor receptor 2 (FGFR2, Homo sapiens, UniProt P21802): 100%
Mast/stem cell growth factor receptor Kit (KIT, Homo sapiens, UniProt P10721, A829P): 59%
Tyrosine-protein kinase ABL1, non-phosphorylated (ABL1, Homo sapiens, UniProt P00519): 87%
Epidermal growth factor receptor (EGFR, Homo sapiens, UniProt P00533, del752-759): 100%
BDNF/NT-3 growth factors receptor (NTRK2, Homo sapiens, UniProt Q16620): 77%
Serine/threonine-protein kinase Nek11 (NEK11, Homo sapiens, UniProt Q8NG66): 100%
Serine/threonine-protein kinase 38 (STK38, Homo sapiens, UniProt Q15208): 99%
Serine/threonine-protein kinase DCLK3 (DCLK3, Homo sapiens, UniProt Q9C098): 100%
Ribosomal protein S6 kinase alpha-3, N-terminal kinase domain (RPS6KA3, Homo sapiens, UniProt P51812): 73%
TRAF2 and NCK-interacting protein kinase (TNIK, Homo sapiens, UniProt Q9UKE5): 92%

Study 4 — effect on: enzyme activity; action: inhibitor; concentration: 0.5 µM; baseline: control; quantity: remaining activity
Target: Tyrosine-protein kinase ZAP-70 (ZAP70, Homo sapiens, UniProt P43403)
Chain of UniProt P43403 (whole entry, looked up): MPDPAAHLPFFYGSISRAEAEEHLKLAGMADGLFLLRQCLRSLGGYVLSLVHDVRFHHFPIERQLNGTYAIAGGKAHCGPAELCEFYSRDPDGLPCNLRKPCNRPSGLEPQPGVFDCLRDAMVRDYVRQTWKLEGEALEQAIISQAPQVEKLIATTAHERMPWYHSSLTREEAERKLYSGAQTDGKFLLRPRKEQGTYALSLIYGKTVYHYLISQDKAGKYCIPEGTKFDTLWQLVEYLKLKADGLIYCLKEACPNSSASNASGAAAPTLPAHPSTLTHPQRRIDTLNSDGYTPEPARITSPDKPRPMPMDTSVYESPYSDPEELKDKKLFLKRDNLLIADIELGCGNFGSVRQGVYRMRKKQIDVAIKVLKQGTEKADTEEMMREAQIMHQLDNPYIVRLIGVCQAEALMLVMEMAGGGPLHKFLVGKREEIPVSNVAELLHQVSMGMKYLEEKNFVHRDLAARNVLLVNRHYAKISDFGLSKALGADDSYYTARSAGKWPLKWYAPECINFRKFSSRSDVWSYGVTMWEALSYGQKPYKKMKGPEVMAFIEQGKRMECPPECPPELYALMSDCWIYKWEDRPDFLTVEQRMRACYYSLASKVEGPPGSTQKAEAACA
Nc1nc(Nc2ccc(S(N)(=O)=O)cc2)nn1C(=S)Nc1c(F)cccc1F: 86.9%
N#C/C(=C(/N)SC1C=CC=CC1)c1cccc(C(O)c2ccncc2)c1 (centres unmarked): 101%
CC(C)(C)c1nc2c3cc[nH]c(=O)c3c3cc(F)ccc3c2[nH]1: 88.9%
CCCCc1c(-c2ccc(O)cc2)[nH]c2nccnc12: 94.4%
O=C1NC(=O)/C(=C/c2ccc3c(c2)OC(F)(F)O3)S1: 99.2%
O=C(c1ccccc1)c1ccc(N2CCOCC2)cc1O: 95.9%
Clc1ccc(Nc2nnc(Cc3ccncc3)c3ccccc23)cc1: 96.6%
CCN(CC)CCCCN1c2ccccc2Oc2ccc(Cl)cc21: 91.1%
O=c1c(-c2ccc(F)cc2)c(-c2ccncc2)[nH]n1-c1ccc(Cl)cc1: 108%
CC(C)N(CCC(=O)c1ccc2ccccc2c1)Cc1ccccc1: 93.7%
CNc1cc2c(Nc3cccc(Br)c3)ncnc2cn1: 99.1%
NC(=O)c1cccc(-c2cc(Nc3ccc(OC(F)(F)F)cc3)ncn2)c1: 97.1%
NC(=O)c1ccc(-c2nc(-c3ccc4c(c3)OCCO4)c(-c3ccccn3)[nH]2)cc1: 107%

Excerpt of the above (study 3):
1-phosphatidylinositol 3-phosphate 5-kinase (PIKFYVE, Homo sapiens, UniProt Q9Y2I7): 100%
Citron Rho-interacting kinase (CIT, Homo sapiens, UniProt O14578): 100%
Tyrosine-protein kinase ABL1, non-phosphorylated (ABL1, Homo sapiens, UniProt P00519, H396P): 100%
Mast/stem cell growth factor receptor Kit (KIT, Homo sapiens, UniProt P10721, A829P): 59%
